{"data": "Assay results pooled from the literature", "target": "Serine/threonine-protein kinase 33 (STK33, Homo sapiens, UniProt Q9BYT3)", "note": "Lines come from different studies, so protocols differ. Several values in a cell are separate wells, animals, samples, runs or records.", "sequence of UniProt Q9BYT3 (whole entry, looked up)": "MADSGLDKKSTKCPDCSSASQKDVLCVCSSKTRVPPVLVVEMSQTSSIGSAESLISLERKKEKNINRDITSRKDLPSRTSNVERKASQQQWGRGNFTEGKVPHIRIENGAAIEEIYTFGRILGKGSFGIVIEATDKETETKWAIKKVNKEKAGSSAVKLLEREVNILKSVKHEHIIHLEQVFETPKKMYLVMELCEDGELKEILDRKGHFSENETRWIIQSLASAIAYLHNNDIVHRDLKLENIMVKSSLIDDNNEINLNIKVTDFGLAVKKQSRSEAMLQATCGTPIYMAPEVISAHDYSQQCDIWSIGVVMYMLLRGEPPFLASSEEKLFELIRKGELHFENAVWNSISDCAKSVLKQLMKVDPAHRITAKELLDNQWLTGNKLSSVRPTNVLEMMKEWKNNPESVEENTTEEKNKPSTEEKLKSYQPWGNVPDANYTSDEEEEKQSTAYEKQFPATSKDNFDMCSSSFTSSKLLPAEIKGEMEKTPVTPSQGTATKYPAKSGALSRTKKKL"}
{"Structure (SMILES)": "CN1CC[C@@H](COc2cnc(C#N)cc2-c2ccn3nc(NC(=O)C4CC4)cc3c2)C1", "test": "enzyme activity, inhibitor", "setting": "1 µM", "measurement": "inhibition", "value": "-5%"}
{"Structure (SMILES)": "C=CC(=O)N1CCc2ccc(-n3c(=O)ccc4cnc5ccc(-c6cnn(C)c6)cc5c43)cc21", "test": "KINOMEscan", "setting": "1 µM", "how to read": "reference: DMSO control", "measurement": "remaining binding", "value": "100%"}
{"Structure (SMILES)": "Nc1ncc2c(n1)-c1c([nH]c3ccc(C4=CCOCC4)cc13)CCC2", "test": "binding, competition with immobilised ligand", "setting": "1 µM", "measurement": "remaining binding", "value": "100%"}
{"Structure (SMILES)": "Cc1c[nH]c2nccc(-c3ccc(C(=O)N[C@@H]4c5c(F)cc(C(F)F)cc5C[C@@H]4O)cn3)c12", "test": "binding, competition with immobilised ligand", "setting": "3 µM", "measurement": "remaining binding", "value": "8%"}
{"Structure (SMILES)": "COc1cc(Nc2nc(C)cc(-c3cnn4nc(OC)ccc34)n2)cc(C(F)(F)F)c1", "test": "binding, competition with immobilised ligand", "setting": "1 µM", "measurement": "remaining binding", "value": "94%"}
{"Structure (SMILES)": "Cc1ccc(C(=O)Nc2ccc(CN3CCN(C)CC3)c(C(F)(F)F)c2)cc1C#Cc1cnc2cccnn12", "test": "target engagement, NanoBRET", "test system": "human cells", "measurement": "Hill slope", "value": -19.5}
{"Structure (SMILES)": "CC(C)=CC1OC(C)(C)C2C=C3C(=O)C(Cl)=CC(O)C3C3C(O)C4OC4C(=O)C132 (stereo not drawn)", "test": "cell-free assay, competition with immobilised ligand", "setting": "10 µM", "measurement": "remaining binding", "value": "100%"}
{"Structure (SMILES)": "N[C@H]1CC[C@H](Nc2nccc(-c3cccnc3Oc3ccc(NC(=O)NC4CC4)c4ccccc34)n2)CC1", "test": "kinobead competition pulldown", "test system": "HEK293/HCT116 lysate mixture", "setting": "10 µM, 1 h, 4 °C", "how to read": "lower = stronger competition", "measurement": "log2 LFQ intensity", "value": "23.2 and 23.1 and 23.3"}
{"Structure (SMILES)": "C=CC(=O)N1CCCC(n2c(=O)c3ncccc3n(Cc3ccc(Oc4ccccc4)cc3)c2=O)C1 (stereo not drawn)", "test": "cell-free assay, competition with immobilised ligand", "setting": "1 µM", "measurement": "remaining binding", "value": "84%"}
{"Structure (SMILES)": "Cc1ccc(-c2c(/C=C(\\C#N)C(=O)NC(C)C)n(CCCO)c3ncnc(N)c23)cc1", "test": "cell-free assay, competition with immobilised ligand", "setting": "1 µM", "measurement": "remaining binding", "value": "87%"}
{"Structure (SMILES)": "CCN1CCN(Cc2ccc(NC(=O)c3ccc(C)c(NC(=O)c4cncc(-c5cccs5)c4)c3)cc2C(F)(F)F)CC1", "test": "binding, competition with immobilised ligand", "setting": "1 µM", "measurement": "remaining binding", "value": "36%"}
{"Structure (SMILES)": "NC(=O)[C@@H](O)C[C@H]1CCc2sc3ncnc(O[C@H]4CC[C@H](N5CCOCC5)CC4)c3c21", "test": "enzyme activity, inhibitor", "setting": "10 µM", "measurement": "inhibition", "value": "26%"}
{"Structure (SMILES)": "CNC1C[S+]2CC[S+]3CC[S+](C1)[Ru-4]321([N]=C=S)[n]2c3ccc(OC)cc3c3c4c(c5cc(F)c[n+]1c5c32)C(=O)NC4=O (stereo not drawn)", "test": "KinomeScan", "setting": "0.1 µM", "how to read": "reference: untreated", "measurement": "remaining binding", "value": "74%"}
{"Structure (SMILES)": "CN1CCN(Cc2ccc(-c3ccc(CO[C@H]4CCC[C@@H]4NC(=O)c4cc(-c5cnn(C)c5)cnc4N)cc3)cc2)CC1", "test": "enzyme activity, inhibitor", "setting": "0.1 µM", "measurement": "inhibition", "value": "-2%"}
{"Structure (SMILES)": "CCN1CCN(Cc2ccc(C(=O)Nc3ccc(C)c(NCc4cnc5[nH]ccc5c4OC)c3)cc2C(F)(F)F)CC1", "test": "binding, competition with immobilised ligand", "setting": "1 µM", "measurement": "remaining binding", "value": "58%"}
{"note": "Some of these lines once more:"}
{"Structure (SMILES)": "Cc1ccc(-c2c(/C=C(\\C#N)C(=O)NC(C)C)n(CCCO)c3ncnc(N)c23)cc1", "test": "cell-free assay, competition with immobilised ligand", "setting": "1 µM", "measurement": "remaining binding", "value": "87%"}
